Results pooled from the literature.
Each numbered part is a random draw from the data of one study; scales do not carry over between parts.
Chain of UniProt P42336 (whole entry, unmodified, looked up): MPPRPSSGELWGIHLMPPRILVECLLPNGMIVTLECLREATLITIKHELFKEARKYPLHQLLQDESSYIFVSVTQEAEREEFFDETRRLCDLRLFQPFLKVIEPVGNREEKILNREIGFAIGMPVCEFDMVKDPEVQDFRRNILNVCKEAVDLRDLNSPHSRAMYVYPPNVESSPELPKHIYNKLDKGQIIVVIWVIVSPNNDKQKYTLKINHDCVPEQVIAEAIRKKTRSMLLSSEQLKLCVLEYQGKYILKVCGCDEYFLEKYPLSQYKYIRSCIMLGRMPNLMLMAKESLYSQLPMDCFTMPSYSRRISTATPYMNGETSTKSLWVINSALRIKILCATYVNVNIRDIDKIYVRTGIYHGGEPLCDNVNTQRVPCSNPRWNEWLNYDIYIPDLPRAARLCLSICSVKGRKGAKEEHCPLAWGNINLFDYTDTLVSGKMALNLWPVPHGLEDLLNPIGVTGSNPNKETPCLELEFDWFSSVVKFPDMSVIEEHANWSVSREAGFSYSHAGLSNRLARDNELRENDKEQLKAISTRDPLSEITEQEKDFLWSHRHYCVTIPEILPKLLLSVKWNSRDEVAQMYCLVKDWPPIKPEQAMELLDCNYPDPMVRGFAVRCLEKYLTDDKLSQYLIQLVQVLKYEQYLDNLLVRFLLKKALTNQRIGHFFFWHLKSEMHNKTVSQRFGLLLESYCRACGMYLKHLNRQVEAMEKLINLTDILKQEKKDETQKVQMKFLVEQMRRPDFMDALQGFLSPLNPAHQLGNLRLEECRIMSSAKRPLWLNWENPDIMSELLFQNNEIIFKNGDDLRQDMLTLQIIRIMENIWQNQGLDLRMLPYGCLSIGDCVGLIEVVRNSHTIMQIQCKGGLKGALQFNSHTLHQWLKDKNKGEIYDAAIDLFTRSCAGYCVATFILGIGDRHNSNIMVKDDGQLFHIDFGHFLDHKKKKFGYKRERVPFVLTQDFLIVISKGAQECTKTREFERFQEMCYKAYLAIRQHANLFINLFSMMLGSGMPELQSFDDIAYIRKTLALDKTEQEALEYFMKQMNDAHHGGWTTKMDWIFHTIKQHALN
Chain of UniProt Q14289 (whole entry, looked up): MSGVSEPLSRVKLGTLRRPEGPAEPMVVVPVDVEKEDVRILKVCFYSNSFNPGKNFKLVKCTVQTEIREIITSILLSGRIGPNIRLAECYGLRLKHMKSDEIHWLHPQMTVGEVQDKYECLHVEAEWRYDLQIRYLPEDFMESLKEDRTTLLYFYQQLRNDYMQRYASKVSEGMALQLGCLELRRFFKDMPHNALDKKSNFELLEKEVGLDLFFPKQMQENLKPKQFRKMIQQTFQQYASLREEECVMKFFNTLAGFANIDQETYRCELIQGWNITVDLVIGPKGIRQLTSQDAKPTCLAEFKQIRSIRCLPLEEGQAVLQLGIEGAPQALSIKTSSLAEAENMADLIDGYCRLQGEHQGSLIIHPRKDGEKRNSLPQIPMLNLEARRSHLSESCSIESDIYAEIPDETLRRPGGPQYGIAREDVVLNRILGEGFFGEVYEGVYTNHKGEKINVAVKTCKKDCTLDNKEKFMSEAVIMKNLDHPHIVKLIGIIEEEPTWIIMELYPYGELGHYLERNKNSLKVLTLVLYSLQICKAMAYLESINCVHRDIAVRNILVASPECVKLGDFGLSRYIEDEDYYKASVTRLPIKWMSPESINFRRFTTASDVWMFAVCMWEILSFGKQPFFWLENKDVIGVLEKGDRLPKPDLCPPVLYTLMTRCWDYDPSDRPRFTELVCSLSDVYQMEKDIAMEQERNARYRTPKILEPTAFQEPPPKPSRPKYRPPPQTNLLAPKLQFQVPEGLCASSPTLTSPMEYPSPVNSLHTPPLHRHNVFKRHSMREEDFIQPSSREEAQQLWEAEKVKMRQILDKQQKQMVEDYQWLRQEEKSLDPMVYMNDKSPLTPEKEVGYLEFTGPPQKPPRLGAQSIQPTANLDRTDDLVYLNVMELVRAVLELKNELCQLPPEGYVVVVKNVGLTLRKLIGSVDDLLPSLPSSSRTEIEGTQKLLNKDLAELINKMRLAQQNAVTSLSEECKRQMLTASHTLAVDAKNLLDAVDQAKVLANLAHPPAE
Chain of UniProt P35916 (whole entry, looked up): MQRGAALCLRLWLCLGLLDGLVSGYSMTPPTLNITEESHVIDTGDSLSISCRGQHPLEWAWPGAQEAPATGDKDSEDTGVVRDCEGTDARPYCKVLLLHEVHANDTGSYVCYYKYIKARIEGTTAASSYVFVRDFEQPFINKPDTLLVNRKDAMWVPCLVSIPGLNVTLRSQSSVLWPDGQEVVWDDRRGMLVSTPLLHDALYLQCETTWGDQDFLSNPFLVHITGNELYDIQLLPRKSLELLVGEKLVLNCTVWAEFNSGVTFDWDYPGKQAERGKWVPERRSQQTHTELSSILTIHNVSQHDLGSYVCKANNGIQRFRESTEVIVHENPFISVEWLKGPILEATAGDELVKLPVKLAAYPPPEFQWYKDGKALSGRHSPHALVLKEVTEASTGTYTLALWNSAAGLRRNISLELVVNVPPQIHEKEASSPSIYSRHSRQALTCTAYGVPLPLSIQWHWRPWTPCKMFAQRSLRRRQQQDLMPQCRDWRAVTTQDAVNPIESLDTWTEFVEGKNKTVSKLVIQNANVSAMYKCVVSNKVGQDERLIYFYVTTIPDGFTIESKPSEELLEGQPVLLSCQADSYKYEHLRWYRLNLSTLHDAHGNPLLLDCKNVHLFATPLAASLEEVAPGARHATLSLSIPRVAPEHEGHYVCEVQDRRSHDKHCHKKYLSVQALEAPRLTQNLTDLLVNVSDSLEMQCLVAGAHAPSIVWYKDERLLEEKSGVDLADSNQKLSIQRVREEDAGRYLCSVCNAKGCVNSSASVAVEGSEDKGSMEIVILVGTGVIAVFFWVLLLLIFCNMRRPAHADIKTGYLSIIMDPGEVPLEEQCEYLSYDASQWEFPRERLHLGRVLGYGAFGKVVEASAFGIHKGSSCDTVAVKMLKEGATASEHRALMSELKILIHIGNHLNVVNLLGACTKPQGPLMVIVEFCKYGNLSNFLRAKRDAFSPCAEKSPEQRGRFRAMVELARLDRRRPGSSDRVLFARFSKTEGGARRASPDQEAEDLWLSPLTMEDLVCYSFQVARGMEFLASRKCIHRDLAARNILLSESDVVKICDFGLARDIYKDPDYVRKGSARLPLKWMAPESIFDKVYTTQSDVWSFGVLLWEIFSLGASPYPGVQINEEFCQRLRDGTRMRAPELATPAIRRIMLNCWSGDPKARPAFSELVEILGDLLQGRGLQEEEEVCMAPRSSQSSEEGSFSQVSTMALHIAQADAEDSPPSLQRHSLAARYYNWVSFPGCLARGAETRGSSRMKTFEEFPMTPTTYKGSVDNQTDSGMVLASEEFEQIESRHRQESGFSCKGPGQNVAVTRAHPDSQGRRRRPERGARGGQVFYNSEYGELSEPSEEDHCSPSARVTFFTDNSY
Chain of UniProt O43353 (whole entry, looked up): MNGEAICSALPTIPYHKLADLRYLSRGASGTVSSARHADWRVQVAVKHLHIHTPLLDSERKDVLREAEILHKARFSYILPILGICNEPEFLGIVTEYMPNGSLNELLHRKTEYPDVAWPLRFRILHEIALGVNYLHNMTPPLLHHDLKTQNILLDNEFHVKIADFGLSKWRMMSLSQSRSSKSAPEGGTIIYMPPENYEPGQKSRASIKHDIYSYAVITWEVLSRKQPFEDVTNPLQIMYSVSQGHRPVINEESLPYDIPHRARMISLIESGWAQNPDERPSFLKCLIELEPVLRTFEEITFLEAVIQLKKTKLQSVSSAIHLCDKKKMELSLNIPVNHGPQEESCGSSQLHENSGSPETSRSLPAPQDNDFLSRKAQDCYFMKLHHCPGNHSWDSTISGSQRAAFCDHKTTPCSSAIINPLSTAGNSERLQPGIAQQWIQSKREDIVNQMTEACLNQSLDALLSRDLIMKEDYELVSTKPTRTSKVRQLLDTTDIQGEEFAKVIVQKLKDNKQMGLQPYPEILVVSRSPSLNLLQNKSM
Chain of UniProt Q9Y6E0 (whole entry, looked up): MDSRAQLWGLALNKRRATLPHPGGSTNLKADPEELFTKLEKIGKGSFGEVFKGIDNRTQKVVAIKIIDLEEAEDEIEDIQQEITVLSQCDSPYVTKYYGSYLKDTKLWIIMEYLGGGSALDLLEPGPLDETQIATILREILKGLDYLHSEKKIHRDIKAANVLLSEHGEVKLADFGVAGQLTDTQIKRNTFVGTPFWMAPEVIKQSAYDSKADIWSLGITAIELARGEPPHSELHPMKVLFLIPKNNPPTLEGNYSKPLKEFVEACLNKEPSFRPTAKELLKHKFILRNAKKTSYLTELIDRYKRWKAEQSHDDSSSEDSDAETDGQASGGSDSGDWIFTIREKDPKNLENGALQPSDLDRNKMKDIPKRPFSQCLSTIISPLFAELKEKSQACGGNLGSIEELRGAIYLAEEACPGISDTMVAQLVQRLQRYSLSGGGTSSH

Block 1
Species: mouse
Sample: microsomes or S9
Tested at: 2 µM
Time: 0.5 h
SMILES | remaining compound [%]
O=c1c2ccccc2nc(NCCCCc2ccccc2)n1-c1ccccc1 | < 1
CN(C)S(=O)(=O)c1ccc(COc2ccc(-n3ccnc3)cc2)o1 | 70.8
Cn1cnc2c(Nc3cnn(-c4ccc(Cl)cc4)c3)ncnc21 | 33.4
COc1cc(=O)[nH]cc1C(=O)N1Cc2ccccc2OC(C)(C)C1 | 75.5
CC1(C)CC(=O)c2c(O)cc(OCC(=O)c3ccc(N4CCCC4)cc3)cc2O1 | 2.05
COc1ccc(C2CC(c3cccs3)=NN2S(C)(=O)=O)cc1OC (centres unmarked) | 46.8
Clc1ccccc1Sc1c(C2CC2)n[nH]c1C1CC1 | 1.55

Block 2
SMILES: O=C(Nc1cnn(-c2csc(C(=O)NC3COC3)c2)c1)Nc1ccccc1Cl
Read-out: enzyme activity
Tested at: 5 µM
Reference: untreated control
target | remaining activity
MAP3K6 (Homo sapiens, UniProt O95382) | 94.3%
PAK6 (Homo sapiens, UniProt Q9NQU5) | 127%
CAMK1D (Homo sapiens, UniProt Q8IU85) | 101%
PKN1 (Homo sapiens, UniProt Q16512) | 108%

Block 3
Cell line: A-375
Tested at: 100 µM
Time: 18 h
Compound | viability [%]
O=C1CCc2cc(OCCCCc3nnnn3C3CCCCC3)ccc2N1 | 76
Nc1ccc(C(=O)O)c(O)c1 | 118
CC(NCCC(c1ccccc1)c1ccccc1)c1ccccc1 (centres unmarked) | 8.3
NCc1ccc(S(N)(=O)=O)cc1 | 86.6
CC(C)NCC(O)c1ccc(NS(C)(=O)=O)cc1 (centres unmarked) | 102
c1ccc2c(c1)CCCC2C1=NCCN1 (centres unmarked) | 88.5

Block 4
SMILES: CN(C)CC#Cc1ccc(OCCCc2sc(N3CCc4cccc(C(=O)Nc5nc6ccccc6s5)c4C3)nc2C(=O)O)c(F)c1
Tested at: 1 µM
target | assay | remaining binding [%]
IGF1R (Homo sapiens, UniProt P08069) | cell-free assay, competition with immobilised ligand | 98
STK24 (Homo sapiens, UniProt Q9Y6E0) | cell-free assay, competition with immobilised ligand | 93
MAPK6 (Homo sapiens, UniProt Q16659) | cell-free assay, competition with immobilised ligand | 94
PIK3CA (Homo sapiens, UniProt P42336, E545A) | cell-free assay, competition with immobilised ligand | 100
PTK2B (Homo sapiens, UniProt Q14289) | cell-free assay, competition with immobilised ligand | 100
MAP4K3 (Homo sapiens, UniProt Q8IVH8) | cell-free assay, competition with immobilised ligand | 92
PIM1 (Homo sapiens, UniProt P11309) | cell-free assay, competition with immobilised ligand | 100
ANKK1 (Homo sapiens, UniProt Q8NFD2) | cell-free assay, competition with immobilised ligand | 69
FLT4 (Homo sapiens, UniProt P35916) | cell-free assay, competition with immobilised ligand | 100
Tyrosine-protein kinase ABL1, phosphorylated (ABL1, Homo sapiens, UniProt P00519, F317I) | binding | 100
Ribosomal protein S6 kinase alpha-5, C-terminal kinase domain (RPS6KA5, Homo sapiens, UniProt O75582) | cell-free assay, competition with immobilised ligand | 83
PIK3CA (Homo sapiens, UniProt P42336, E545K) | cell-free assay, competition with immobilised ligand | 95
PIK3CB (Homo sapiens, UniProt P42338) | cell-free assay, competition with immobilised ligand | 100
PTK2 (Homo sapiens, UniProt Q05397) | cell-free assay, competition with immobilised ligand | 100
MATK (Homo sapiens, UniProt P42679) | cell-free assay, competition with immobilised ligand | 96
MAP3K5 (Homo sapiens, UniProt Q99683) | cell-free assay, competition with immobilised ligand | 94
TYRO3 (Homo sapiens, UniProt Q06418) | cell-free assay, competition with immobilised ligand | 94
MAP4K1 (Homo sapiens, UniProt Q92918) | cell-free assay, competition with immobilised ligand | 93
EPHA2 (Homo sapiens, UniProt P29317) | cell-free assay, competition with immobilised ligand | 92
BMPR1A (Homo sapiens, UniProt P36894) | binding, competition with immobilised ligand | 99
MAP3K7 (Homo sapiens, UniProt O43318) | cell-free assay, competition with immobilised ligand | 100
DAPK1 (Homo sapiens, UniProt P53355) | cell-free assay, competition with immobilised ligand | 91
RIPK2 (Homo sapiens, UniProt O43353) | cell-free assay, competition with immobilised ligand | 100

Block 5
Target: panel of 300 human kinases
Tested at: 0.5 µM
Direction: higher = more selective
Structure (SMILES) | Gini score
Ic1cccc(CSc2nnc(-c3ccncc3)o2)c1 | 0.71
COc1cc(OC)c(C=C2C(O)=Nc3ccccc32)c(OC)c1 | 0.66
O=C1Nc2ccc(Cl)cc2C1=Cc1cc(Cl)c(O)c(Cl)c1 | 0.6
CN([C@@H](Cc1ccc(OS(=O)(=O)c2cccc3cnccc23)cc1)C(=O)N1CCN(c2ccccc2)CC1)S(=O)(=O)c1cccc2cnccc12 | 0.7
O=C(Nc1nc2ccccc2n1CCN1CCOCC1)c1cccc([N+](=O)[O-])c1 | 0.7

Block 6
Target: Calcium/calmodulin-dependent protein kinase type II subunit alpha (CAMK2A, Homo sapiens, UniProt Q9UQM7)
Chain of UniProt Q9UQM7 (whole entry, looked up): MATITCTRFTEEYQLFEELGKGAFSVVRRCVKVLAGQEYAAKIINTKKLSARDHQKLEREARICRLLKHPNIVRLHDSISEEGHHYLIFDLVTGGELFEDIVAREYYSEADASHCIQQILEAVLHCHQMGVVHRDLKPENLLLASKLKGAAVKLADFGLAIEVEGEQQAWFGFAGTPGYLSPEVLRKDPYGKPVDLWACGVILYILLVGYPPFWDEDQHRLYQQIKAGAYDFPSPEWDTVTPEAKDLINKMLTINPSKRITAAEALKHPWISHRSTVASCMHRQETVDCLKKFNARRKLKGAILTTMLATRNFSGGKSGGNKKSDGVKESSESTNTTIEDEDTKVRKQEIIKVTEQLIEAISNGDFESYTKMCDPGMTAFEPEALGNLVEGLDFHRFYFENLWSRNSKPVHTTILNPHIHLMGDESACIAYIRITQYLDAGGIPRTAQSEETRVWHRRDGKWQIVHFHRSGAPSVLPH
Read-out: enzyme activity
Action: inhibitor
Tested at: 10 µM
SMILES | inhibition [%]
COc1ccc2cc1Oc1ccc(cc1)C[C@H]1c3cc(c(OC)cc3CCN1C)Oc1c(OC)c(OC)cc3c1[C@H](C2)N(C)CC3 | -14
C=C1CC[C@]2(C)CC[C@]3(C)[C@H](CC[C@@H]4[C@@]5(C)CC[C@H](O)C(C)(C)[C@@H]5CC[C@]43C)[C@H]2[C@@H]1C | 33
COc1cc(-c2oc3cc(O)cc(O)c3c(=O)c2O)ccc1O | 66
CC1(C)CCC(CN2CCN(c3ccc(C(=O)NS(=O)(=O)c4ccc(NCC5CCOCC5)c([N+](=O)[O-])c4)c(Oc4cnc5[nH]ccc5c4)c3)CC2)=C(c2ccc(Cl)cc2)C1 | -4
CCCOc1cc(N)ccc1C(=O)OCCN(CC)CC | -14

Repeated from above (block 4):
target | assay | remaining binding [%]
ANKK1 (Homo sapiens, UniProt Q8NFD2) | cell-free assay, competition with immobilised ligand | 69
FLT4 (Homo sapiens, UniProt P35916) | cell-free assay, competition with immobilised ligand | 100
Tyrosine-protein kinase ABL1, phosphorylated (ABL1, Homo sapiens, UniProt P00519, F317I) | binding | 100
Ribosomal protein S6 kinase alpha-5, C-terminal kinase domain (RPS6KA5, Homo sapiens, UniProt O75582) | cell-free assay, competition with immobilised ligand | 83
